Experimental data pooled from the literature.
Each line is one published result; not all experiments were run side by side.
Technique: steady-state kinetics
B1: efeB (Bacillus subtilis, UniProt P39597); chain IGASGLGGLAPLVQTAAKPSKKDEKEEEQIVPFYGKHQAGITTAHQTYVYFAALDVTAKDKSDIITLFRNWTSLTQMLTSGKKMSAEQRNQYLPPQDTGESADLSPSNLTVTFGFGPGFFEKDGKDRFGLKSKKPKHLAALPAMPNDNLDEKQGGGDICIQVCADDEQVAFHALRNLLNQAVGTCEVRFVNKGFLSGGKNGETPRNLFGFKDGTGNQSTKDDTLMNSIVWIQSGEPDWMTGGTYMAFRKIKMFLEVWDRSSLKDQEDTFGRRKSSGAPFGQKKETDPVKLNQIPSNSHVSLAKSTGKQILRRAFSYTEGLDPKTGYMDAGLLFISFQKNPDNQFIPMLKALSAKDALNEYTQTIGSALYACPGGCKKGEYIAQRLLES
B2: enzyme Y27L (Thermoplasma volcanium, UniProt Q978S7); chain MAFHGLVKYSDITVEGLPKIQYHGFIGNNRTAMLVAMNGYIDWGCLPNFNSNAVFSSILDKNKGGYFAIFPSDTTDVYVDQYYKEMTNVLVTEFVKNGKIILRLTDFMPDSEYGKISFPEVHRFVESFSEPIDITIDFKPTFNYGQDKPIIEKDQHGFIFTTDKESIGISSEFPLRKNSDRIFGNVKMEPRSSSWIIALYGIHHLFRTTDYKSYLRLQETTDYWRKWASSSSYAGAYHSMVMRSALALKVLFYEPTGLMVAAPTASLPEAIGGERNWDYRFTWIRDTAYVIEALSSIGYKYEATEFLYDMMDMITRDNRIRTIYSIDDSNDLEERIIDYEGYRGSRPVRIGNKAVDQLQIDQYGSIVRAIHSMAKAGGIVNSYLWDFVEQVMAKIEYLWKYPDSSIWEFRTEPKQYVYSKVMSWAAFDSAISMAKDLGLSAPIKQWKSIQDEIKKEVLEKGFDTDTNSFVQYYGSKNIDAALLRLPILGFIPANDEKFLGTLSRIEKELMVDGYLFKRYREDDGLKGDEGSFLMLTFWYIEDLILMKRLKKAREVLESVLEKANHLGLYSEEIDEKSGDFLGNFPQALSHLGVIRVAPKLEEALLKRTSKINS
B3: enzyme K234A (Methanosarcina mazei, UniProt Q8PVB1); chain MSEQRSVPLREHLLALKPCRHGGLIQETSETYGIPENEILDFSANFNPLGSPFDYPENGLNFEDIIKKSCGKLLEYPDNRYVEFREAAARFVGLGVTPQSIVPGNGSTEIVRLVVESVIEKGDKVLLPWPTFGEYEMQCRITGAEPVCPSQEEVNTLPDEVLEEAKILFICNPNNPTGKLRTREELKVLAERCREHKTLLYVDEAFIELSDPSQSVADLPAENNYVFVMRSLTADFAIPGIRMGFGIAPPAMADILNTARLSWNLGAIANNTGIALLNIEGGIDSPYLKKAREMILKEGETLKAKIDRIRGFEAGEVNVNFILVDVSKFMLNSSELTARLAARGVLVRDCVSFHGLGKNYIRVAVRTEKENDRLIAAIGDVITEWGREQAKNELQHVIEKASEEGIGGRKTCEYYPCHFEGQNCTFCFCPFYPCENEKTGGKWIQSSRGGRVWSCVDCHLVHKKEIAQKILDCLMHEGDTDELVKVAWKEVMEPIL
B4: enzyme D25A (Nitrosopumilus maritimus, UniProt A9A5X4); chain MDSQKFDSIIFDCDGVLVDITQSYAKTIDKTCRYVLKEFAKIDSITIDHKIIDGFKSSGGFNDEVDLVYAAILSLYTANKLNKKPSEFIYDVISNTDKTGIRSVQSYLESIYDVSEFLSKLGSLGDRHNNPVYSIFDQFFFGPELYGKLFDKQSKFSEEGMISNDKVILSVSLLETLQKEFGKKIAVVTGRGIESIRYSLKDMMDYFDTKNSAFLEDEPRELAKPNPATLIRAIQSMESKNCLYVGDSMEDYMMAKDAAQAGHSTTFCAIVGTSTNPEDRRKLFADSGVEMILESINDIPKVLNLV
B5: enzyme (Cryptosporidium parvum, UniProt Q8IS93); chain MADLTFMYDLVVIGGGSGGMAAAKEAAKYGKKVALFDFVKPSTQGTKWGLGGTCVNVGCVPKKLMHYSALIASSIHHDAQMFGHKTSSSFEWGKLVETLRNHIRMLNFSYRTGLRVGNVEYINALAKLIDPHSVEYEDNGQKKTITSRYILLATGGRPSIPETVPGAIQYSITSDDIFFLSKSPGKTLVIGASYIGLETAGFLNELGFDTTVAMRSIPLRGFDRQCSEKIVEYMKATGTKFLVGVVPINIEKVNENIKVSFSDGSVEEFETVLYATGRNPDVKGLNLNAIGVEVSDSGKIIAPKDATSVPSIFAVGDIVEGRPELTPVAVKAGILLARRLFAGSNEFIDYDFVPTTVFTPIEYGHVGLSSEAAIAKYGEDDIEEYLSEFSTLEIAAAHREKPEHLRENEMDFALPLNCLAKLVVVKSQGEKVVGFHFVGPNAGEITQGFSLAVKLGATKKDFDDMIGIHPTDAEVFGILEVTKRSGESFVSSGGCGGGKCG
B6: aspC A106G/A218G/F210I/I29V/I33V/I68L/I71L/N30D/N64T/S135A/T100S/V136I/V375I (Escherichia coli, UniProt P00509); chain MFENITAAPADPILGLADLFRADERPGKVDLGVGVYKDETGKTPVLTSVKKAEQYLLENETTKTYLGLDGLPEFGRCTQELLFGKGSALINDKRARTAQSPGGTGGLRVAADFLAKNTSVKRVWVSNPSWPNHKAIFNSAGLEVREYAYYDAENHTLDFDALINSLNEAQAGDVVLFHGCCHNPTGIDPTLEQWQTLAQLSVEKGWLPLIDFAYQGFGRGLEEDAEGLRAFAAMHKELIVASSYSKNFGLYNERVGACTLVAADSETVDRAFSQMKAAIRANYSNPPAHGASVVATILSNDALRAIWEQELTDMRQRIQRMRQLFVNTLQEKGANRDFSFIIKQNGMFSFSGLTKEQVLRLREEFGVYAVASGRINVAGMTPDNMAPLCEAIVAVL
B7: DHRS13 (Homo sapiens, UniProt Q6UX07); chain MEALLLGAGLLLGAYVLVYYNLVKAPPCGGMGNLRGRTAVVTGANSGIGKMTALELARRGARVVLACRSQERGEAAAFDLRQESGNNEVIFMALDLASLASVRAFATAFLSSEPRLDILIHNAGISSCGRTREAFNLLLRVNHIGPFLLTHLLLPCLKACAPSRVVVVASAAHCRGRLDFKRLDRPVVGWRQELRAYADTKLANVLFARELANQLEATGVTCYAAHPGPVNSELFLRHVPGWLRPLLRPLAWLVLRAPRGGAQTPLYCALQEGIEPLSGRYFANCHVEEVPPAARDDRAAHRLWEASKRLAGLGPGEDAEPDEDPQSEDSEAPSSLSTPHPEEPTVSQPYPSPQSSPDLSKMTHRIQAKVEPEIQLS
B8: CYP4F3 A27G/C46R/I34V/M14V/R49Q/W12G (Homo sapiens, UniProt Q08477); chain MALLLAVFLLGPVAASPWLLLLLVGGSWLLARVLAWTYTFYDNCRRLQCFPQPPKRNWFLGHLGLIHSSEEGLLYTQSLACTFGDMCCWWVGPWHAIVRIFHPTYIKPVLFAPAAIVPKDKVFYSFLKPWLGDGLLLSAGEKWSRHRRMLTPAFHFNILKPYMKIFNESVNIMHAKWQLLASEGSARLDMFEHISLMTLDSLQKCVFSFDSHCQEKPSEYIAAILELSALVTKRHQQILLYIDFLYYLTPDGQRFRRACRLVHDFTDAVIQERRRTLPSQGVDDFLQAKAKSKTLDFIDVLLLSKDEDGKKLSDEDIRAEADTFMFEGHDTTASGLSWVLYHLAKHPEYQERCRQEVQELLKDREPKEIEWDDLAQLPFLTMCIKESLRLHPPVPAVSRCCTQDIVLPDGRVIPKGIICLISVFGTHHNPAVWPDPEVYDPFRFDPKNIKERSPLAFIPFSAGPRNCIGQAFAMAEMKVVLGLTLLRFRVLPDHTEPRRKPELVLRAEGGLWLRVEPLS
B9: DCK (Homo sapiens, UniProt P27707); chain MATPPKRSCPSFSASSEGTRIKKISIEGNIAAGKSTFVNILKQLCEDWEVVPEPVARWCNVQSTQDEFEELTMSQKNGGNVLQMMYEKPERWSFTFQTYACLSRIRAQLASLNGKLKDAEKPVLFFERSVYSDRYIFASNLYESECMNETEWTIYQDWHDWMNNQFGQSLELDGIIYLQATPETCLHRIYLRGRNEEQGIPLEYLEKLHYKHESWLLHRTLKTNFDYLQEVPILTLDVNEDFKDKYESLVEKVKEFLSTL
B10: enzyme (Pseudomonas poae, UniProt A0A2S9EJ63); chain MSTQHYDYIIVGGGSAGSVLANRLSAQADKRVLLIEAGADTPEHDTPTDILDGLQPWLPRLAGERYFWPGLNILRASEHGDIPREPQLYEQARILGGGSSVNMMVANRGLPRDYDEWARLGADGWDWQGVLPYFRKLERDLDFGHSHPEQHGQDGPIPIARVDSRHWGSFTRASAQALHTQGLNDIVDQNGRFEDGYFAPAVAIEHDQRVSSARAYLNAAVRARPNLSVWADTTVRQLTVKGQRVTGVQAVRDGRTVELAGDEVILAAGALQSPAFLLRAGIGPADQLRDLGIEVIADRPGVGRNLWDHSSIGLSASLHHPQVPSDEPGAAHLLAARVSSGVEPSVPGDLYLGIAPNAALGLASAVLWVNKPSSSGHLRLRSKDPADYPAVEFNLLSDRRDLERLRQGLRLLARVFAHPAVAAFSGPPRLSRFAQASNEGPLLSELLANDAQLERYLRTHVGGVWHASGTCRIGRADDPQAVVDHAGRVHGVQGLRVADASVFPSIPTANTNLPTLMIAEKIAEAILANA
Sequence of UniProt P78804 (whole entry, looked up): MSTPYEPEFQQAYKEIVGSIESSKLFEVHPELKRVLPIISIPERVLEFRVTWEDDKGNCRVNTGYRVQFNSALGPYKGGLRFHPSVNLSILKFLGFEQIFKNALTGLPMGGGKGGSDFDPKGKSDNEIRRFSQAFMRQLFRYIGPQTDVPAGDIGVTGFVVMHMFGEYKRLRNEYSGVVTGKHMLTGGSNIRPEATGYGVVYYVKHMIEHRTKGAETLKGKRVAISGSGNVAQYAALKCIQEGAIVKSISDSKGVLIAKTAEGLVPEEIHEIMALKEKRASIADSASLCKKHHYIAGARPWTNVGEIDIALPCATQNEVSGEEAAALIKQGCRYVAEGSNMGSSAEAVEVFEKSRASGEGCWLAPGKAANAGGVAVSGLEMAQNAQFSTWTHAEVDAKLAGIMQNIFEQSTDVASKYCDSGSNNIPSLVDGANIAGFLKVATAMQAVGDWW
Sequence of UniProt P22309 (whole entry, looked up): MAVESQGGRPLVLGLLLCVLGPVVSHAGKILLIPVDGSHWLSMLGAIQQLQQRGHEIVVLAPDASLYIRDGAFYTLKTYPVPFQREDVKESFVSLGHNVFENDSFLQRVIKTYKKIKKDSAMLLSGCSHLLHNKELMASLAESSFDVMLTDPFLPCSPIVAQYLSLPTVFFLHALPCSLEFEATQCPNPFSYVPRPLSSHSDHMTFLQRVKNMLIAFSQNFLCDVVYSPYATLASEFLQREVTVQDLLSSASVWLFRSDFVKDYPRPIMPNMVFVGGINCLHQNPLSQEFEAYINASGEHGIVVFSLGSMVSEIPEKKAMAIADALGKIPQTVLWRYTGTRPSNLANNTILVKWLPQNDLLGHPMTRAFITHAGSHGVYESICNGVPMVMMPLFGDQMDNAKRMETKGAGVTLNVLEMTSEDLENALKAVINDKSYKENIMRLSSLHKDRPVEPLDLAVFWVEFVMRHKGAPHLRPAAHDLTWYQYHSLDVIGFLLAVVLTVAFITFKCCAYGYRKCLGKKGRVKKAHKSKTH
Sequence of UniProt P09546 (whole entry, looked up): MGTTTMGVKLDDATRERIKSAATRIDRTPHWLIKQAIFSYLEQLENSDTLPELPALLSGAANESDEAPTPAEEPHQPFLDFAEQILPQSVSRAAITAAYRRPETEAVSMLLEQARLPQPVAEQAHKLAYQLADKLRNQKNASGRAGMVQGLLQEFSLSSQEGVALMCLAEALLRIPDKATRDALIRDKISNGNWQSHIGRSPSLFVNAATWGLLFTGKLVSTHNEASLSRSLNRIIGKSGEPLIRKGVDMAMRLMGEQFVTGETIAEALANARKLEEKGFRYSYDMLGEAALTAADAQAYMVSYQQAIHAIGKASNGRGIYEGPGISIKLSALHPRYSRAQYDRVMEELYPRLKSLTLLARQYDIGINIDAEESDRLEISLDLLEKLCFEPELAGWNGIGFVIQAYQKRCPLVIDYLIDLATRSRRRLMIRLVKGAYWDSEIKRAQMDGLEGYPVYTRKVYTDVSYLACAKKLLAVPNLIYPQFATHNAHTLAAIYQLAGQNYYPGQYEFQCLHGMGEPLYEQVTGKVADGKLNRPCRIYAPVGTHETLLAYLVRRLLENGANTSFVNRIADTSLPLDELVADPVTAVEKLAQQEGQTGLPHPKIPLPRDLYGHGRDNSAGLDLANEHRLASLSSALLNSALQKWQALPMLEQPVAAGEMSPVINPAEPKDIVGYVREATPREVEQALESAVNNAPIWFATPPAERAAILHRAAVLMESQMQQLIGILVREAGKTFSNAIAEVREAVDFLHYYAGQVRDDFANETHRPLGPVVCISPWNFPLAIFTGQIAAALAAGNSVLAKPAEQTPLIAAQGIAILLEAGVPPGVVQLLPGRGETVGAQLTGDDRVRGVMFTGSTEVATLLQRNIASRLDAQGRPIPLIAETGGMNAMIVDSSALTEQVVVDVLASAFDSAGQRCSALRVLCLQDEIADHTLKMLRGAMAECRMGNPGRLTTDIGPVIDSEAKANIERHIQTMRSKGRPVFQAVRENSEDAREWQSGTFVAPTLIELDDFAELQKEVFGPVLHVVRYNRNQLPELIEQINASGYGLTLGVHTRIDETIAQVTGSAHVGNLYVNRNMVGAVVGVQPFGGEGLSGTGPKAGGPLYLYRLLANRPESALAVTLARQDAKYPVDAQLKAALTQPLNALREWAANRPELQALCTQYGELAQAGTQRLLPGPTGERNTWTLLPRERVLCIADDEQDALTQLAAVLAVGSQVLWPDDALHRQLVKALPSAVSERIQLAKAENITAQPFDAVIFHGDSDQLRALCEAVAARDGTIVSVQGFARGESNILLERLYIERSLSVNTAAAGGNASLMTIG

Molecule = B1 (efeB); substrate = CCn1c(=NN=c2sc3cc(S(=O)(=O)O)ccc3n2CC)sc2cc(S(=O)(=O)O)ccc21; pH = pH 6; temperature = 25 °C; setting = apparent; Km = 1400 µM
Molecule = B2 (enzyme Y27L); substrate = OC[C@H]1O[C@H](O[C@H]2O[C@H](CO)[C@@H](O)[C@H](O)[C@H]2O)[C@H](O)[C@@H](O)[C@@H]1O; pH = pH 3.7; temperature = 30 °C; Km = 46500 µM
Molecule = enzyme (Schizosaccharomyces pombe, UniProt P78804); substrate = NC(=O)c1ccc[n+]([C@@H]2O[C@H](COP(=O)(O)OP(=O)(O)OC[C@H]3O[C@@H](n4cnc5c(N)ncnc54)[C@H](OP(=O)(O)O)[C@@H]3O)[C@@H](O)[C@H]2O)c1; pH = pH 7; temperature = 30 °C; setting = apparent; Km = 40 µM
Molecule = enzyme (Sargassum horneri, UniProt A0A097IUG6); substrate = C=C(OP(=O)(O)O)C(=O)O; pH = pH 6.5; temperature = 25 °C; with = 2 mM ADP; Km = 700 µM
Molecule = B3 (enzyme K234A); substrate = Nc1ncnc2c1ncn2[C@@H]1O[C@H](COP(=O)(O)OP(=O)(O)OP(=O)(O)O)[C@@H](O)[C@H]1O; pH = pH 8.5; temperature = 25 °C; setting = apparent, anoxic; with = L-Thr 10 mM; Km = 96 µM
Molecule = B4 (enzyme D25A); substrate = N[C@H](COP(=O)(O)O)Cc1c[nH]cn1; pH = pH 7.8; temperature = 25 °C; Km = 582 µM
Molecule = UGT1A1 (Homo sapiens, UniProt P22309); substrate = O=c1c(O)c(-c2ccc(O)c(O)c2)oc2cc(O)ccc12; pH = pH 7.4; temperature = 37 °C; setting = not purified; Km = 3.4 µM
Molecule = B5 (enzyme); substrate = O=C(O)c1cc(SSc2ccc([N+](=O)[O-])c(C(=O)O)c2)ccc1[N+](=O)[O-]; pH = pH 7.4; with = NADPH 150 µM; Km = 1280 µM
Molecule = B6; substrate = N[C@@H](Cc1ccc(O)cc1)C(=O)O; pH = pH 7.5; temperature = 25 °C; with = PLP 20 µM; Km = 8000 µM
Molecule = B7 (DHRS13); substrate = CC1=C(/C=C/C(C)=C/C=C/C(C)=C/C=O)C(C)(C)CCC1; pH = pH 7.4; temperature = 37 °C; Km = 66.7 µM
Molecule = HNL C81L/E79H/G176S/H103V/K236M/N104A/T11G/V106F (Hevea brasiliensis); substrate = CC(=O)Oc1ccc([N+](=O)[O-])cc1; pH = pH 7.2; temperature = 22 °C; Km = 160 µM
Molecule = putA (Escherichia coli, UniProt P09546); substrate = CC1=C(C)C(=O)C(C)=C(C)C1=O; pH = pH 7.4; temperature = 20 °C; with = proline 200 mM; Km = 147 µM
Molecule = enzyme (Tannerella forsythia, UniProt G8UMQ6); substrate = C[C@@H]1O[C@@H](Oc2ccc([N+](=O)[O-])cc2Cl)[C@@H](O)[C@H](O)[C@@H]1O; pH = pH 8.4; temperature = 40 °C; Km = 774 µM
Molecule = B8; substrate = CCCCC/C=C\C[C@@H](O)/C=C/C=C/C=C\[C@@H](O)CCCC(=O)O; pH = pH 7.4; Km = 75.5 µM
Molecule = enzyme (Manihot esculenta, UniProt Q41172); substrate = O=[N+]([O-])c1ccc(O[C@@H]2O[C@H](CO)[C@@H](O)[C@H](O)[C@H]2O)cc1; pH = pH 6; temperature = 30 °C; setting = not purified; Km = 8650 µM
Molecule = CYP2J2 L2A (Homo sapiens); substrate = CC/C=C\C/C=C\C/C=C\C/C=C\C/C=C\C/C=C\CCC(=O)O; Km = 542 µM
Molecule = enzyme (UniProt A0A1H9C520); substrate = OC[C@@H](O)[C@@H](O)[C@H](O)[C@@H](O)CO; pH = pH 8; temperature = 37 °C; Km = 7510 µM
Molecule = B9 (DCK); substrate = Nc1ccn([C@@H]2O[C@H](CO)[C@@H](O)C2(F)F)c(=O)n1; pH = pH 7.6; Km = 18.4 µM
Molecule = enzyme (UniProt A0A4R3LQ44); substrate = O=C(O)[C@H](O)[C@@H](O)[C@@H](O)[C@H](O)CO; pH = pH 7.5; temperature = 50 °C; Km = 3800 µM
Molecule = B10 (enzyme); substrate = O=Cc1ccc(CO)o1; pH = pH 8; temperature = 30 °C; with = 2 µM FAD; Km = 2250 µM

Excerpt of the above:
Molecule = B9 (DCK); substrate = Nc1ccn([C@@H]2O[C@H](CO)[C@@H](O)C2(F)F)c(=O)n1; pH = pH 7.6; Km = 18.4 µM
Molecule = B8; substrate = CCCCC/C=C\C[C@@H](O)/C=C/C=C/C=C\[C@@H](O)CCCC(=O)O; pH = pH 7.4; Km = 75.5 µM
